Measured values of several laboratories.
Each line is one published result; not all experiments were run side by side. ± marks the error that the study gave.
HLA class I histocompatibility antigen, A alpha chain allele A*26:03: HLA class I histocompatibility antigen, A alpha chain, allele A*26:03 (Homo sapiens, UniProt P04439)
FURIN: Furin (FURIN, Homo sapiens, UniProt P09958)
CASP3: Caspase-3 (CASP3, Homo sapiens, UniProt P42574)
HLA class I histocompatibility antigen, A alpha chain allele A*80:01: HLA class I histocompatibility antigen, A alpha chain, allele A*80:01 (Homo sapiens, UniProt P04439)
PTPN1: Tyrosine-protein phosphatase non-receptor type 1 (PTPN1, Homo sapiens, UniProt P18031)
MCA2: Metacaspase-2 (MCA2, Trypanosoma brucei brucei, UniProt Q585F3)

Sequences of proteins named here, by UniProt entry; tags and fusion partners are left off. Residues count along the entry.
UniProt P09958, whole entry, looked up: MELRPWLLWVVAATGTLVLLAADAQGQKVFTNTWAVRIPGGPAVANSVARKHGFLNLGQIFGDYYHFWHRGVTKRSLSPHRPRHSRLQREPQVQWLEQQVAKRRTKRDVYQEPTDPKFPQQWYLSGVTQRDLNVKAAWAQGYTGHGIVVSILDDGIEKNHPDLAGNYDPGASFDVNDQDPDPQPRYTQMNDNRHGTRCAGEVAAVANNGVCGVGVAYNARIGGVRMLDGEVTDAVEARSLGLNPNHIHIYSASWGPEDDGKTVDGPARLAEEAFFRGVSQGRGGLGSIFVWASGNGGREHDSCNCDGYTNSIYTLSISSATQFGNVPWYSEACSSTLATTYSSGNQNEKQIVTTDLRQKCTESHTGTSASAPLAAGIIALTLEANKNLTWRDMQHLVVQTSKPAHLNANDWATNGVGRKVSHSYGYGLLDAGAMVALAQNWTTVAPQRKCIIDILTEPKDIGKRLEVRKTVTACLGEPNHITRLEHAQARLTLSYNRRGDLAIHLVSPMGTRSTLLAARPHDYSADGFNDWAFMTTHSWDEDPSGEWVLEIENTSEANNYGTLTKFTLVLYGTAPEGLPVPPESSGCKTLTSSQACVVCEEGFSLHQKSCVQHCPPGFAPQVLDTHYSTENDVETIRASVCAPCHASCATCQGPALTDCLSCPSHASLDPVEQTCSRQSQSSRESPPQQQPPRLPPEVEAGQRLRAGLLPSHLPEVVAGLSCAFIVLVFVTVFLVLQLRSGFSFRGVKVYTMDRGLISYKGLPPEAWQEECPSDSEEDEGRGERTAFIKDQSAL
UniProt P42574, whole entry, looked up: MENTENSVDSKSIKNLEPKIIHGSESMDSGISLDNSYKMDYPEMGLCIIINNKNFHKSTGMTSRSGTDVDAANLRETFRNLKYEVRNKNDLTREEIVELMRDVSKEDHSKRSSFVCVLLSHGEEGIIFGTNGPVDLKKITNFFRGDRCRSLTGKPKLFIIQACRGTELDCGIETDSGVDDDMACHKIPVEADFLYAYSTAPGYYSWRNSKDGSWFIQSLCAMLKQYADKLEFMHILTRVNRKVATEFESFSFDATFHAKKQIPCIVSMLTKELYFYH
UniProt P18031, 1-321 limits assumed: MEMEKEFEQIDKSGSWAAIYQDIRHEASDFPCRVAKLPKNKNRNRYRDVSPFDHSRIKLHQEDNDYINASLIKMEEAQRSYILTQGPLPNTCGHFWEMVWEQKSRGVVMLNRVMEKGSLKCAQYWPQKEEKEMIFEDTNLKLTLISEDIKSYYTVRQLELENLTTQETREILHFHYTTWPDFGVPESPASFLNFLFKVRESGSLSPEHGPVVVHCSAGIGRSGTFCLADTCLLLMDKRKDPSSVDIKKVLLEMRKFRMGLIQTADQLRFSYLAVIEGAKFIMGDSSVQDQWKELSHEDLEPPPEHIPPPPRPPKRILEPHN
UniProt Q585F3, whole entry, looked up: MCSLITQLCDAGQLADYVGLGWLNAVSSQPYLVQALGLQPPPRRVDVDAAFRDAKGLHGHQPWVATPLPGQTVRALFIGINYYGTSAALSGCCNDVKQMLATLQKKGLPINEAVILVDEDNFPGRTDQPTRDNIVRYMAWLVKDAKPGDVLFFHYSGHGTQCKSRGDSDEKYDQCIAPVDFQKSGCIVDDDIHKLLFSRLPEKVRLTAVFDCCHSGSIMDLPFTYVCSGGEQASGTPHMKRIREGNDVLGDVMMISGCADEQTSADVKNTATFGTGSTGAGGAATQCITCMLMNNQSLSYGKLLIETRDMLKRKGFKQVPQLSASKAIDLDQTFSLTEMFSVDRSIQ
UniProt P37136, 32-614 limits assumed: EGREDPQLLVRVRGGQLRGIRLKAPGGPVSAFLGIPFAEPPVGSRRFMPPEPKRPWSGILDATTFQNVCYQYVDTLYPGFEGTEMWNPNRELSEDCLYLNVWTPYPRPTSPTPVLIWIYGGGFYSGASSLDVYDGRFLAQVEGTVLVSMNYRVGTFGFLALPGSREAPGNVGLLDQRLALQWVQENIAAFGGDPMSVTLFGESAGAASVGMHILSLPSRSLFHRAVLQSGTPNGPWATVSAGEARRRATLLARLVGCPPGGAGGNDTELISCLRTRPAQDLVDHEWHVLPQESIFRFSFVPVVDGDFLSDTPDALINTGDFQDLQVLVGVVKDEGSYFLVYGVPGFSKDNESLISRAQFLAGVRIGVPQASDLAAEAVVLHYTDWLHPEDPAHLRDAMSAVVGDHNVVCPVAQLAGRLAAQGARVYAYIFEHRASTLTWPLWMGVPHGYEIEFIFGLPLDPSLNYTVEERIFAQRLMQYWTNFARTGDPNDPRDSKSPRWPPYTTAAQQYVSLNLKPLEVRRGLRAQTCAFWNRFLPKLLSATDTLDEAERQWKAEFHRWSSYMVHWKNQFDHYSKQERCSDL
UniProt Q5BJF2, whole entry: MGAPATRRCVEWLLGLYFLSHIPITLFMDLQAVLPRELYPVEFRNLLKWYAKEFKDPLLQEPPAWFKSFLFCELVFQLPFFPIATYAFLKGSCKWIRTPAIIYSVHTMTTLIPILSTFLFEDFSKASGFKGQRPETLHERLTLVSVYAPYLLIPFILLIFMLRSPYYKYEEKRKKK
UniProt P30926, 22-498 limits assumed: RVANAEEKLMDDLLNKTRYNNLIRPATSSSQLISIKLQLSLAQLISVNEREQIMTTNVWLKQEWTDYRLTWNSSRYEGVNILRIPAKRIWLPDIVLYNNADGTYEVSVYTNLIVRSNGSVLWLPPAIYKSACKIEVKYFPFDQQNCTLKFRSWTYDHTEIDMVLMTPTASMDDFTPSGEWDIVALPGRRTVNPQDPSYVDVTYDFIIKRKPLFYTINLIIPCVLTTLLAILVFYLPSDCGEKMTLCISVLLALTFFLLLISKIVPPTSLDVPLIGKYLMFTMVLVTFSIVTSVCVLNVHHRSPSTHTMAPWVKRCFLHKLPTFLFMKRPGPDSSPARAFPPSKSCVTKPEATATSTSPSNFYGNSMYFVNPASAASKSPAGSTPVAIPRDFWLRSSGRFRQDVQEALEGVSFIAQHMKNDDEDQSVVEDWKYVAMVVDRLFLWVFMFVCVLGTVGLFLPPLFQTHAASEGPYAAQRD
UniProt Q15822, 27-529 limits assumed: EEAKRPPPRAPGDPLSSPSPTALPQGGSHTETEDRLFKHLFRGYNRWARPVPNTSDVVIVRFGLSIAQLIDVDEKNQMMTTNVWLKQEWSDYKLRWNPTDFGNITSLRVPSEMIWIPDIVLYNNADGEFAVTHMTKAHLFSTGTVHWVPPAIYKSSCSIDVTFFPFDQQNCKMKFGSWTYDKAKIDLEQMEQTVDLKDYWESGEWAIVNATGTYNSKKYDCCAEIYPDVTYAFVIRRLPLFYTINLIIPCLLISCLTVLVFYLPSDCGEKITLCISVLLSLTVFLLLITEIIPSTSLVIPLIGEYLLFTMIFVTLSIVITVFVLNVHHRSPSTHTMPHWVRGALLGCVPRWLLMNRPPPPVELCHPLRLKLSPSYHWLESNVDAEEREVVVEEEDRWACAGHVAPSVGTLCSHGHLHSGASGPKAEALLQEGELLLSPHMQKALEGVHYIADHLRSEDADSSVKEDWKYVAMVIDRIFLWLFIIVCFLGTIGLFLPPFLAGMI

`Cc1nn(-c2ccc(Cl)cc2)c2c1C(c1cc(Cl)ccc1Cl)C(C#N)=C(N)O2` (centres unmarked) has a viability of 94.1% (Vero E6; 0.4 µM).
`CC(C)C[C@H](NC(=O)[C@@H](NC(=O)[C@H](CCCCN)NC(=O)[C@H](CCCCN)NC(=O)[C@H](CCCNC(=N)N)NC(=O)[C@H](CCC(N)=O)NC(=O)[C@@H](N)[C@@H](C)O)[C@@H](C)O)C(=O)NCC(=O)N[C@@H](Cc1ccccc1)C(=O)O` gave a z-score of -2.27 (HLA class I histocompatibility antigen, A alpha chain allele A*26:03; direction not given).
The kcat of `CC(C)C[C@H](NC(=O)[C@H](CO)NC(=O)[C@H](CCCNC(=N)N)NC(=O)[C@H](CCCCN)NC(=O)[C@H](CCCCN)NC(=O)[C@H](CCCNC(=N)N)NC(=O)[C@H](CCCNC(=N)N)NC(=O)[C@H](CCCNC(=N)N)NC(=O)[C@H](CCC(=O)O)NC(=O)[C@H](CCCNC(=N)N)NC(=O)c1ccccc1N)C(=O)N[C@@H](CO)C(=O)NCC(=O)N[C@@H](CCC(N)=O)C(=O)NCCNc1ccc([N+](=O)[O-])cc1[N+](=O)[O-]` is reported as 4.1 s⁻¹ (FURIN; substrate; pH 7).
For `CC(C)[C@H](NC(=O)CNC(=O)[C@H](COP(=O)(O)O)NC(=O)[C@@H](NC(=O)[C@H](CCC(=O)O)NC(=O)[C@H](CC(=O)O)NC(=O)CCNC(=O)Cc1cc(=O)oc2cc(N)ccc12)C(C)C)C(=O)N[C@@H](CCCCNc1ccc([N+](=O)[O-])cc1[N+](=O)[O-])C(=O)N[C@@H](CC(=O)O)C(N)=O`, the kcat was 0.002 s⁻¹ (CASP3; substrate; pH 7.2, 37 °C).
`CC[C@H](C)[C@H](NC(=O)CNC(=O)[C@@H]1CCCN1C(=O)[C@H](Cc1ccccc1)NC(=O)[C@H](CC(C)C)NC(=O)[C@@H]1CCCN1)C(=O)N[C@H](C(=O)N[C@@H](CCCNC(=N)N)C(=O)N[C@H](C(=O)O)C(C)C)[C@@H](C)O` gave a z-score of 0.38 (HLA class I histocompatibility antigen, A alpha chain allele A*80:01; direction not given).
For `CC(=O)N[C@@H](CC(=O)O)C(=O)N[C@@H](C)C(=O)N[C@@H](C)C(=O)N[C@@H](CC(=O)O)C(=O)N[C@H](C(=O)N[C@@H](Cc1ccc(OP(=O)(O)O)cc1)C(=O)N[C@@H](C)C(=O)N[C@@H](C)C(N)=O)C(C)C`, the kcat/Km was 3.1e+06 M⁻¹ s⁻¹ (PTPN1; substrate, continuous UV; pH 7.4).
For `CC(C)C[C@H](NC(=O)CNC(=O)[C@H](CC(=O)O)NC(=O)[C@H](CC(C)C)NC(=O)[C@H](CC(C)C)NC(=O)[C@H](Cc1ccc(O)cc1)NC(=O)[C@H](CC(C)C)NC(=O)[C@H](C)N)C(=O)N[C@@H](CCCNC(=N)N)C(=O)O`, the z-score was -1.01 (HLA class I histocompatibility antigen, A alpha chain allele A*26:03; direction not given).
For `CC[C@H](C)[C@H](NC(=O)[C@@H](NC(=O)[C@H](CC(=O)O)NC(=O)CNC(=O)[C@@H](NC(=O)[C@H](CC(=O)O)NC(=O)[C@H](CCSC)NC(=O)[C@H](CCC(=O)O)NC(=O)[C@H](CC(=O)O)NC(=O)[C@@H](NC(=O)CCNC(=O)Cc1cc(=O)oc2cc(N)ccc12)C(C)C)[C@@H](C)O)[C@@H](C)O)C(=O)N[C@@H](CCCCNc1ccc([N+](=O)[O-])cc1[N+](=O)[O-])C(N)=O`, the Km was 15.5 µM (CASP3; substrate; pH 7.2).
For `CC(=O)N[C@@H](C)C(=O)N[C@@H](C)C(=O)N[C@@H](Cc1ccc(OP(=O)(O)O)cc1)C(=O)N[C@@H](C)C(=O)N[C@@H](CC(=O)O)C(=O)N[C@@H](CC(=O)O)C(=O)N[C@@H](C)C(=O)N[C@@H](C)C(N)=O`, the kcat was 30 ± 1 s⁻¹ (PTPN1; substrate; pH 7.4, catalytic domain).
`CC(=O)N[C@@H](CC(=O)O)C(=O)N[C@H](C(=O)N[C@@H](C)C(=O)N[C@@H](CC(=O)O)C(=O)N[C@H](C(=O)N[C@@H](Cc1ccc(OP(=O)(O)O)cc1)C(=O)N[C@@H](CC(=O)O)C(=O)N[C@@H](Cc1c[nH]c2ccccc12)C(=O)N[C@@H](CCC(=O)O)C(=O)N[C@@H](Cc1ccccc1)C(N)=O)C(C)C)[C@@H](C)O` has a kcat/Km of 5.8e+06 M⁻¹ s⁻¹ (PTPN1; substrate, continuous UV; pH 7.4).
`CC[C@H](C)[C@H](NC(=O)CNC(=O)[C@@H](NC(=O)[C@H](C)NC(=O)[C@H](CCCNC(=N)N)NC(=O)[C@H](CCCCN)NC(=O)[C@H](CCC(=O)O)NC(=O)[C@H](CCCNC(=N)N)NC(=O)[C@H](CCC(N)=O)NC(=O)[C@@H](NC(=O)c1ccccc1N)C(C)C)C(C)C)C(=O)N[C@@H](CCC(N)=O)C(=O)NCCNc1ccc([N+](=O)[O-])cc1[N+](=O)[O-]` has a kcat of 3.9 s⁻¹ (FURIN; substrate; pH 7).
`CCOC(=O)c1c(-c2ccc(Cl)cc2Cl)n(-c2nc(-c3ccc(Cl)cc3)c3c(NC(=O)c4ccccc4)nnc-3[nH]2)[nH]c1=O` has a CC50 of > 100 µM (MOLT-4; SRB).
`CC[C@H](C)[C@H](NC(=O)[C@H](CCC(N)=O)NC(=O)[C@H](CCCCN)NC(=O)[C@H](CCCCN)NC(=O)[C@H](CCCNC(=N)N)NC(=O)[C@H](CC(C)C)NC(=O)[C@@H](N)CCSC)C(=O)N[C@H](C(=O)N[C@H](C(=O)O)C(C)C)[C@@H](C)O` gave a z-score of 0.38 (HLA class I histocompatibility antigen, A alpha chain allele A*80:01; direction not given).
The IC50 of `COP(=O)(OC)Oc1ccc([N+](=O)[O-])cc1Cl` is reported as 0.092 µM (Ache (Rattus norvegicus, UniProt P37136); enzyme activity, inhibitor, discontinuous Ellman; rat, postnatal day 70, rat skeletal muscle homogenate; 15 min, 37 °C).
With `CC(C)C[C@H](NC(=O)[C@H](CO)NC(=O)[C@H](CCCNC(=N)N)NC(=O)[C@H](CCCCN)NC(=O)[C@H](CCCCN)NC(=O)[C@H](CCCNC(=N)N)NC(=O)[C@H](CCCNC(=N)N)NC(=O)[C@H](CCCNC(=N)N)NC(=O)c1ccccc1N)C(=O)N[C@@H](CO)C(=O)NCC(=O)N[C@@H](CCC(N)=O)C(=O)NCCNc1ccc([N+](=O)[O-])cc1[N+](=O)[O-]` the kcat was 3.1 s⁻¹ (FURIN; substrate; pH 7).
With `N#Cc1c(-c2ccc(Cl)cc2Cl)n(-c2nc(-c3ccc(Cl)cc3)c3c(NC(=O)c4ccccc4)nnc-3[nH]2)[nH]c1=O` the CC50 was > 100 µM (UACC-257; SRB).
`CN1C(=O)CCc2cc(CNC(C)(C)[C@@H](O)c3ccccc3)ccc21` has a selectivity ratio of > 250 fold (TMEM97 (Homo sapiens, UniProt Q5BJF2); binding; baseline: Ki σ1 over Ki σ2).
`CC(C)C[C@H](NC(=O)[C@H](CC(C)C)NC(=O)[C@@H](N)Cc1c[nH]cn1)C(=O)N[C@@H](CS)C(=O)N[C@@H](CCC(N)=O)C(=O)N[C@@H](C)C(=O)N[C@@H](Cc1ccccc1)C(=O)N[C@@H](CO)C(=O)N[C@H](C(=O)O)C(C)C` gave a z-score of 0.38 (HLA class I histocompatibility antigen, A alpha chain allele A*80:01; direction not given).
The IC50 of `CC[C@H](C)[C@@H]1NC(=O)[C@H](CCC(=O)O)NC(=O)[C@@H]2CCCN2C(=O)[C@H](Cc2c[nH]cn2)NC(=O)[C@H](CCCNC(=N)N)NC(=O)[C@H](C(C)C)NC(=O)[C@H](CC(N)=O)NC(=O)[C@@H]2CSSC[C@H](NC(=O)CN)C(=O)N[C@@H](CSSC[C@@H](C(N)=O)NC1=O)C(=O)N[C@@H](CO)C(=O)N[C@@H](Cc1c[nH]cn1)C(=O)N1CCC[C@H]1C(=O)N[C@@H](C(C)C)C(=O)N2` is reported as > 10 µM (Neuronal acetylcholine receptor; alpha2/beta4 (Homo sapiens, UniProt P30926+Q15822); ion current, antagonist, two-electrode voltage clamp; Xenopus oocytes; human, with: ACh 300 µM).
`CC(C)[C@H](NC(=O)[C@H](CCCNC(=N)N)NC(=O)[C@H](C)NC(=O)[C@H](CCCCN)NC(=O)c1ccccc1N)C(=O)N[C@@H](CO)C(=O)N[C@@H](C)C(=O)N[C@@H](CCC(N)=O)C(=O)NCCNc1ccc([N+](=O)[O-])cc1[N+](=O)[O-]` has a Km of 0.53 µM (MCA2; enzyme activity, substrate, FRET hydrolysis; Trypanosoma brucei; pH 7.4).
Under “relative hydrolysis rate”, `CC[C@H](C)[C@H](NC(=O)CNC(=O)c1ccccc1N)C(=O)N[C@@H](CCCNC(=N)N)C(=O)N[C@@H](CCCNC(=N)N)C(=O)N[C@@H](CCCCN)C(=O)N[C@@H](CCCNC(=N)N)C(=O)N[C@@H](CO)C(=O)N[C@H](C(=O)N[C@@H](CO)C(=O)N[C@@H](Cc1cnc[nH]1)C(=O)N[C@@H](CCC(N)=O)C(=O)NCCNc1ccc([N+](=O)[O-])cc1[N+](=O)[O-])C(C)C` is recorded as ~30 (FURIN; substrate; concentration not given; baseline: Ac-RVRR-MCA).
`CC(=O)N[C@@H](CC(=O)O)C(=O)N[C@H](C(=O)N[C@@H](C)C(=O)N[C@@H](C)C(=O)N[C@H](C(=O)N[C@@H](Cc1ccc(OP(=O)(O)O)cc1)C(=O)N[C@@H](C)C(=O)N[C@@H](C)C(N)=O)C(C)C)[C@@H](C)O` has a kcat/Km of 1.8e+06 M⁻¹ s⁻¹ (PTPN1; substrate, continuous UV; pH 7.4).
With `C[C@H](NC(=O)[C@H](CCCCN)NC(=O)c1ccccc1N)C(=O)N[C@@H](CCCNC(=N)N)C(=O)N[C@@H](CO)C(=O)N[C@@H](CO)C(=O)NCC(=O)N[C@@H](CCC(N)=O)C(=O)NCCNc1ccc([N+](=O)[O-])cc1[N+](=O)[O-]` the Km was 0.3 µM (MCA2; enzyme activity, substrate, FRET hydrolysis; Trypanosoma brucei; pH 7.4).
